Results of several laboratories.
± marks the error that the study gave.

SMILES	cell line	assay	system	setting	quantity	value
C=C(CO)[C@@H]1CC[C@]2(C)CC[C@]3(C)[C@H](CC[C@@H]4[C@@]5(C)CCC(=O)C(C)(C)C5CC[C@]43C)C12 (stereo partly shown)	HEK293-A	cell growth or viability, SRB	–	–	IC50	12.5 µM
COc1c(CC=C(C)C)c(O)cc2c1[C@@H]1Oc3c(ccc(O)c3CC=C(C)C)[C@@H]1CO2	3T3-L1	MTT	–	concentration not given	viability	40.5 ± 0.9%
COc1ccc([C@@H]2CC(=O)c3c(O)cc(O[C@@H]4O[C@H](CO[C@@H]5O[C@@H](C)[C@H](O)[C@@H](O)[C@H]5O)[C@@H](O)[C@H](O)[C@H]4O)cc3O2)cc1O	MRC5	cell growth or viability, MTS	–	100 µg/mL, 24 h	viability	54.8%
COc1cc(/C=C/C(=O)c2ccc3c(c2)OCO3)cc(OC)c1OC	HEK293 empty vector pcDNA3.1	cell growth, MTT	–	72 h, 10% FBS	GI50	4.4 µM
CC(=O)O[C@@H]1C[C@H]2C(C)(C)[C@H](O)CC[C@]2(C)[C@H]2CC[C@]34C[C@]3(CC[C@H]4[C@@H](C)C[C@@H](O)[C@H](O)C(C)(C)O)[C@@]21C	fibroblasts	MTT	–	concentration not given	cytotoxicity	not toxic
CCCCCCCCCCCC(=O)NCCC(=O)N[C@H](CCCNC(=N)N)C(=O)N[C@H](CCCNC(=N)N)C(=O)N[C@H](CCCNC(=N)N)C(=O)N[C@H](CCCNC(=N)N)C(=O)N[C@H](CCCNC(=N)N)C(=O)N[C@@H](CCCNC(=N)N)C(=O)N[C@@H](CCCNC(=N)N)C(=O)N[C@@H](CCCNC(=N)N)C(=O)N[C@@H](CCCNC(=N)N)C(=O)N[C@@H](CCCCNC(=S)Nc1ccc2c(c1)C(=O)OC21c2ccc(O)cc2Oc2cc(O)ccc21)C(N)=O	Jurkat	RP-HPLC fluorescence, refers to: Arg peptide metabolite	culture medium	6 h	peak area	56.2%
O=c1c(-c2nc3ccccc3s2)cc2c(n1NS(=O)(=O)c1ccccc1)CCCCCC2	BGM	trypan blue	–	72 h	maximum non-toxic concentration	140 µg/mL
COc1cc(/C=C/C(=O)c2ccc(Br)cc2)ccc1OCc1ccccc1	HEK293 empty vector pcDNA3.1	cell growth, MTT	–	72 h, 10% FBS	GI50	28.7 ± 5.4 µM
CC(=O)OC[C@H]1O[C@@H](Sc2sc(C(=O)c3ccc(Br)cc3)c(N)c2-c2nc3ccccc3s2)[C@H](OC(C)=O)[C@@H](OC(C)=O)[C@@H]1OC(C)=O	FRhK-4	–	–	72 h	non-toxic concentration	100 µg/mL
O=C(Nc1cc(F)c(F)c(F)c1)c1ccc(F)c(S(=O)(=O)N2CCC(NC(=O)c3ccc(N4CCN(C(=O)CC56CC7CC(CC(C7)C5)C6)CC4)cc3)CC2)c1	HepAD38	cytopathic effect	human hepatoma cells	–	maximum non-toxic concentration	30 µmol/L
CCCCCCCCCc1nc2cc(Cl)ccc2c(=O)n1CCCN	Jurkat	–	–	up to 100 µM, 24 h	LDH release	≤ 50%
O=C(CC12CC3CC(CC(C3)C1)C2)NC12CCC(C(=O)NC3CCN(S(=O)(=O)c4cc(C(=O)Nc5cc(F)c(F)c(F)c5)ccc4F)CC3)(CC1)CC2	HepAD38	cytopathic effect	human hepatoma cells	–	maximum non-toxic concentration	30 µmol/L
CC(C)[C@H](NC(=O)[C@H](CCC(=O)O)NC(=O)[C@H](CCC(=O)O)NC(=O)[C@@H]1Cc2ccc(O)cc2CN1C(=O)[C@H](CCC(=O)O)NC(=O)[C@H](CC(=O)O)NC(=O)[C@H](CC(=O)O)NC(=O)[C@H](CCC(=O)O)NC(=O)[C@@H](CCCNC(=N)N)NC(=O)[C@@H](CCCNC(=N)N)NC(=O)[C@@H](CCCNC(=N)N)NC(=O)[C@H](C)N(C)C(=O)[C@H](Cc1ccccc1)NC(=O)[C@@H](NC(=O)[C@H](Cc1ccccc1)NC(=O)[C@H](C)NC(=O)[C@H](CCCNC(=N)N)N(C)C(=O)[C@@H]1CCCN1C(=O)[C@H](CCCNC(=N)N)NC(=O)CNC(=O)c1ccc2c(c1)C1(OC2=O)c2ccc(O)cc2Oc2cc(O)ccc21)[C@@H](C)O)C(N)=O	A-431	–	–	time not given, added: EGF	reporter degradation	71.2 ± 1.1%
C[C@H]1[C@H](C)CC[C@]2(CO)CC[C@]3(C)C(=CC[C@@H]4[C@@]5(C)CCCNC(C)(C)[C@@H]5CC[C@]43C)[C@H]12	primary HFF	cell viability, CellTiter-Glo	–	HCMV AD169 assay setting	CC50	14.8 µM
CCOC(=O)c1cc(-c2nc3ccccc3s2)c(=O)n(NS(=O)(=O)c2ccc(Cl)cc2)c1N	FRhK-4	trypan blue	–	72 h	maximum non-toxic concentration	130 µg/mL
FC(F)(F)c1ccnc(-c2cc(C(F)(F)F)ccn2)c1.FC(F)(F)c1ccnc(-c2cc(C(F)(F)F)ccn2)c1.[Cl-].[Cl-].[Ru+2].c1cnc2c(c1)c1nc[nH]c1c1cccnc12	SK-MEL-28	resazurin	–	concentration not given, normoxia, visible light	photocytotoxicity	inactive
O=c1c(-c2nc3ccccc3s2)cc2c(n1NS(=O)(=O)c1ccc(Cl)cc1)CCCCCC2	BGM	trypan blue	–	72 h	maximum non-toxic concentration	120 µg/mL
CC(=O)OC[C@H]1O[C@@H](Sc2sc(C(=O)c3ccc(C)cc3)c(N)c2-c2nc3ccccc3s2)[C@H](OC(C)=O)[C@@H](OC(C)=O)[C@@H]1OC(C)=O	BGM	cytotoxicity	–	72 h	maximum non-toxic concentration	90 µg/mL
COC(=O)CC[C@@H](NC(=O)[C@@H](Cc1ccc(OP(=O)(O)O)cc1)NC(=O)[C@@H](Cc1ccccc1)NC(=O)[C@@H](Cc1ccccc1)NC(=O)Cc1ccc2ccccc2c1)C(=O)OC	HS5	–	–	200 µM, 24 h	remaining compound	62.2%
CC(=O)O[C@@H]1[C@@H](OC(C)=O)[C@H](Sc2sc(C(=O)c3ccc(C)cc3)c(N)c2-c2nc3ccccc3s2)OC[C@H]1OC(C)=O	FRhK-4	–	–	72 h	non-toxic concentration	90 µg/mL
CC(=O)[O-].Nc1ccc(C([O-])=NN=Cc2ccc(OCC(=O)Nc3ccc(Cl)cc3)cc2)cc1.[Cu+2]	WISH	cytotoxicity, MTT	–	24 h	IC50	43.3 ± 3.8 µM
CC(=O)OC[C@H]1O[C@@H](Sc2sc(C(=O)c3ccc(Cl)cc3)c(N)c2-c2nc3ccccc3s2)[C@H](OC(C)=O)[C@@H](OC(C)=O)[C@@H]1OC(C)=O	BGM	cytotoxicity	–	72 h	maximum non-toxic concentration	80 µg/mL
O=c1[nH]c2ccccc2nc1/C=C/C=C/c1ccccc1	HL7702	cell viability, MTT	–	72 h	IC50	> 100 µM
Cc1ccc(C(=O)c2sc(S)c(-c3nc4ccccc4s3)c2N)cc1	BGM	cytotoxicity	–	72 h	maximum non-toxic concentration	90 µg/mL
Cc1[nH][n+]([Pt-2]([Cl])([n+]2[nH]c(C)c(CSC3CCCCC3)c2C)[n+]2[nH]c(C)c(CSC3CCCCC3)c2C)c(C)c1CSC1CCCCC1.Cl	Jurkat	cytotoxicity, 7-AAD flow cytometry	–	24 h	IC50	0.02 µM

Some of these lines once more:
SMILES	cell line	assay	system	setting	quantity	value
Cc1ccc(C(=O)c2sc(S)c(-c3nc4ccccc4s3)c2N)cc1	BGM	cytotoxicity	–	72 h	maximum non-toxic concentration	90 µg/mL
CC(=O)O[C@@H]1C[C@H]2C(C)(C)[C@H](O)CC[C@]2(C)[C@H]2CC[C@]34C[C@]3(CC[C@H]4[C@@H](C)C[C@@H](O)[C@H](O)C(C)(C)O)[C@@]21C	fibroblasts	MTT	–	concentration not given	cytotoxicity	not toxic
